Experimental data gathered from unrelated publications.
Each line is one published result; not all experiments were run side by side. ± marks the error that the study gave.

`C[C@H]1COCCN1c1nc(NCc2cccnc2C(F)(F)F)c2cccnc2n1` has a QRS change of 17% (anaesthetized rat; intravenous, 30 mg/kg; baseline: control).
For `Clc1ccc(-c2ccccc2)cc1`, the albumin was 3 ± 0.6 g/dL (Sprague-Dawley rats, female, serum; inhalation, 23 µg/rat, 0 h after exposure).
`CC1(C)C(C=C(Cl)Cl)C1C(=O)OC(C#N)c1ccc(F)c(Oc2ccccc2)c1` (centres unmarked) — result for “enzyme contribution to clearance”: 0.21% (refers to: CYP3A5; human, age 6 months, recombinant human CYP3A5; 0.1 µM).
`CCCCCCCCCCCCCCCC(=O)N[C@@H](CCC(=O)NCCCC[C@H](NC(=O)[C@H](CC(=O)O)NC(=O)[C@H](CO)NC(=O)[C@@H](NC(=O)[C@H](Cc1ccccc1)NC(=O)[C@@H](NC(=O)CNC(=O)[C@H](CCC(N)=O)NC(=O)[C@H](CO)NC(=O)[C@@H](N)Cc1c[nH]cn1)[C@@H](C)O)[C@@H](C)O)C(=O)N[C@@H](CO)C(=O)N[C@@H](CCC(=O)O)C(=O)N[C@@H](Cc1ccc(O)cc1)C(=O)N[C@@H](CC(C)C)C(=O)N[C@@H](CC(=O)O)C(=O)N[C@@H](CO)C(=O)N[C@@H](CCC(=O)O)C(=O)N[C@@H](CCCNC(=N)N)C(=O)N[C@@H](C)C(=O)N[C@@H](CCCNC(=N)N)C(=O)N[C@@H](CC(=O)O)C(=O)N[C@@H](Cc1ccccc1)C(=O)N[C@H](C(=O)N[C@@H](C)C(=O)N[C@@H](Cc1c[nH]c2ccccc12)C(=O)N[C@@H](CC(C)C)C(=O)N[C@@H](CCC(=O)O)C(=O)N[C@@H](C)C(=O)NCC(=O)NCC(=O)O)C(C)C)C(=O)O`: “treatment-related adverse events” 12.5% (refers to: Dyspepsia; humans CrCl at least 90 mL/min; subcutaneous, 100 µg single dose).
The logP of `Cc1n[nH]c(C)c1CSCc1ccccc1` is reported as 1.48 ± 0.4 (reversed-phase HPLC; acetonitrile-water).
For `CC(C)C[C@H](NC(=O)[C@H](CCCCN)NC(=O)OCC1c2ccccc2-c2ccccc21)C(=O)N[C@H](C(=O)N[C@@H](Cc1ccccc1)C(=O)N[C@@H](Cc1ccccc1)C(=O)N[C@@H](CCCCN)C(=O)NCC(=O)N[C@@H](Cc1ccccc1)C(=O)N[C@@H](C)C(=O)N[C@@H](Cc1c[nH]c2ccccc12)C(=O)N[C@@H](CC(N)=O)C(=O)N[C@H](C(=O)N[C@H]1CSSC[C@@H](C(=O)N[C@@H](Cc2c[nH]cn2)C(=O)N[C@@H](CCCNC(=N)N)C(=O)N[C@@H](CCCNC(=N)N)C(=O)N[C@@H](C)C(=O)N[C@@H](CC(N)=O)C(N)=O)NC(=O)[C@H](C(C)C)NC(=O)[C@H](CCCNC(=N)N)NC(=O)[C@H](C(C)C)NC(=O)CNC(=O)[C@H](CC(N)=O)NC(=O)[C@H](CCCNC(=N)N)NC(=O)[C@H](Cc2ccc(O)cc2)NC(=O)[C@H](C(C)C)NC1=O)C(C)C)C(C)C`, the plateletcrit was 0.03% (ICR mice, blood; intraperitoneal, 5 mg/kg, day 5).
`COc1ccc2nc3cc(Cl)ccc3c(Nc3cc(CN4CCCC4)c(O)c(CN4CCCC4)c3)c2n1`: “red cell distribution width (SD)” 24.9 fL (mouse, blood; oral, 57 mg/kg).
Under “adverse events grade 3 or above”, `C[C@@H](NC(=O)N1C(=O)[C@H](Cc2ccnc(N)c2)[C@H]1C(=O)O)C1CCCCC1` is recorded as 0% (healthy Chinese adult volunteers; continuous intravenous infusion, dose not given, 5.0 days, CTCAE 5.0, all doses).
`COc1ccnc(C(=O)N[C@H]2COC(=O)[C@H](Cc3ccccc3)[C@@H](OC(=O)C(C)C)[C@H](C)OC2=O)c1OCOC(=O)C(C)C` gave a DT50 of 8.55 days (field soil, loam; normalised, UK).
`CC(=O)c1c(C)c2cnc(Nc3ccc(C4CCN(CCS(C)(=O)=O)CC4)cn3)nc2n(C2CCCC2)c1=O`: “patients with TEAE grade ≥3” 66.7% (HR+/HER2- advanced breast cancer patients; oral, 150 mg).
`[O-][S+]1CCc2nc(N3CCC(c4ncc(Cl)cn4)CC3)nc(NC3(CO)CCC3)c21` (centres unmarked) — result for “adverse event incidence”: 25% (refers to: Headache; healthy male humans; 6 mg twice daily).
`C[C@H]1CN(C(=O)CC#N)[C@]12CCN(c1ncnc3[nH]ccc13)C2`: “AUC at NOAEL” 4.29 µg·h/mL (rat female; oral, 10 mg/kg repeated daily, 6 months, repeated-dose toxicity study).
`O=C(Nc1ccc2c(c1)B(O)OC2)c1ccccc1OCc1ccccc1` gave a donor concentration of 161 ± 69.1 µM (PAMPA; pre-coated trilayer membrane; 200 µM, 5 h, pH 7.4, donor plate, PBS).
Under “grade ≥3 neutropenia”, `NC(=O)[C@H]1CCN(c2ncnc(N)c2F)C[C@@H]1N1CCC[C@@H](Nc2cc(Cl)cc(C(F)(F)F)c2)C1=O` is recorded as 0% (B-cell malignancy patients; oral, 328 mg twice daily, dose).
The Albumin of `CCc1ccc(CC/C=C/c2ccc3c(c2)C(=O)CC3)cc1` is reported as 39 g/L (Sprague-Dawley rat, female; oral, 120 mg/kg/day, 14 days).
`N=c1c2c(-c3ccccc3)c(-c3ccccc3)n(Cc3ccccc3)c2ncn1[C@H]1CC[C@H](O)CC1` has a fu of 0.0059 (equilibrium dialysis; pooled human plasma).
Under “patients with TEAE”, `O=C1Nc2cc3[nH]nc(-c4ccncc4)c3cc2CN1Cc1ccccc1` is recorded as 35% (refers to: Nausea; patients with advanced solid tumours; intravenous, dose not given, all schedules).
`CC(C)(c1ccccc1)c1cc(-n2nc3ccccc3n2)c(O)c(C(C)(C)c2ccccc2)c1` gave a mass recovery of 49.1% (EpiSkin reconstructed epidermis; 36 h).
`O=C(O)CCCOc1ccc(F)cc1-c1cc(-c2ccccc2C(F)(F)F)n(-c2ccccc2)n1`: “serum protein fraction” 5.5 ± 1.4% (refers to: γ-glb; Crl:CD(SD) rats, female, serum; iv, 25 µg/kg, 1 day).
`COc1cc2c(Oc3ccc4[nH]c(C)cc4c3F)ccnc2cc1OCC1(N)CC1` — result for “grade 3 hand-foot syndrome”: 0% (paediatric recurrent refractory sarcoma; 10 mg).
For `CC(C)(O)c1cc(Nc2cc(Oc3cn(C4CC4)nc3C3CCOCC3)ccn2)ccn1`, “treatment-related adverse events” read 0% (Diarrhea; patients with advanced cancer, grade 4 glioma expansion; oral, 50 mg twice daily, grade ≥3, 2 weeks on/2 weeks off schedule).
`Cn1cc(-c2nc(N[C@@H]3CCCC[C@@H]3N)c(F)c3c2C(=O)NC3)cn1` gave an adverse events of 25% (epistaxis; patients with relapsed or refractory AML; oral, 60 mg once daily).
`N.N.[Cl][Pt][Cl]` has an ALT of 50 IU/L (mice, serum; dose not given).
`CN1CCN(S(=O)(=O)c2cc([N+](=O)[O-])ccc2N(CCOS(C)(=O)=O)CCOS(C)(=O)=O)CC1` gave a calcium of 2.6 mmol/L (naive NOD/SCID mice, pooled blood; intraperitoneal, 12.5 mg/kg, week 4).
The recovery of `CC(C)CC(=O)OC[C@H]1O[C@@](C#N)(c2ccc3c(N)ncnn23)[C@H](O)[C@@H]1O` is reported as 100% (plasma protein binding; monkey plasma; 0.9 µM, time not given).
For `CCCC(CCC)NC(=O)c1ccc2c(c1)OCO2`, the PCE/NCE ratio was 0.9 (Swiss albino CD-1 mice, male, bone marrow; intraperitoneal, 175 mg/kg, 48 h).
For `COc1ncccc1-c1cnn2ccc(N3CCN(C(=O)OC(C)C)CC3)nc12`, the concentration was 2.1 µM (rat, plasma; oral, 30 mg/kg, 1.5 h, with: saline).
The AUC(0-t) of `O=C(O)CCC(CP(=O)(O)O)C(=O)O` (centres unmarked) is reported as 7.2 ± 1.2 nmol·h/g (NSG mice, C4-2 xenograft, tumor; intravenous, 3 mg/kg, 0.25 to 6 h).
Under “serious adverse event incidence”, `COc1ccc(-c2c(-c3ccc(C#N)c(F)c3)nc(N3CCC(N)CC3)n(C)c2=O)cc1F` is recorded as 2% (refers to: Abdominal pain; human patients; oral, dose not given, dose escalation, NG).
`Cc1cccc(Cn2nc(C3CC3)c3c(NC(=O)c4cnc5cc(OCCN6CCN(C)CC6)ccn45)cccc32)n1`: “all-cause adverse events” 24.6% (CTCAE v4.03, refers to: decreased appetite; advanced solid tumour patients; oral, dose not given, all cohorts, with: pembrolizumab IV every 3 weeks).
`Cn1cccc1-c1cccnc1`: “slowing of nicotine clearance” roughly 50% (one-compartment model; rat; intravenous, 25 % of nicotine, clinically relevant dose).
`C[C@]1(CO)Cc2ncn(-c3ccc(C#N)c(Cl)c3)c2C(=O)O1`: “subjects with any TEAE” 28.6% (human; 10 mg single dose).
The TRAE incidence of `CO[C@H]1C[C@@H]2CC[C@@H](C)[C@@](O)(O2)C(=O)C(=O)N2CCCC[C@H]2C(=O)O[C@H]([C@H](C)C[C@@H]2CC[C@@H](OC(=O)NCCOCCOCCOCCOCCOCCOCCOCCOCCC(=O)N3CCc4cc(Cn5nc(-c6ccc7oc(N)nc7c6)c6c(N)ncnc65)ccc4C3)[C@H](OC)C2)C[C@@H](O)[C@H](C)/C=C(\C)[C@@H](O)[C@@H](OC)C(=O)[C@H](C)C[C@H](C)/C=C/C=C/C=C/1C` is reported as 0% (phase 1 dose escalation, refers to: nausea; advanced solid tumour patients; intravenous, 6 mg weekly, grade ≥3).
Under mRNA level, `CC(=O)[C@H]1[C@H](C#N)C[C@H]2[C@@H]3CC=C4C[C@@H](O)CC[C@]4(C)[C@H]3CC[C@@]21C` is recorded as “increased” (qPCR, refers to: Cyp3a11; wild-type mice, liver; 10 mg/kg, 3 days; baseline: vehicle).
For `O=S(=O)(Nc1ccccc1)c1ccc(NC(=S)Nc2ccccc2)cc1`, “serum enzyme activity” read 2570 U/L (refers to: CK; male mouse, blood; oral, 5 mg/kg daily, 14 days).
